Assay results collected from several papers.
Protocols differ between the studies behind these lines. ± marks the error that the study gave.
4'-phosphopantetheinyl transferase PptT: 4'-phosphopantetheinyl transferase PptT (Mycobacterium tuberculosis, UniProt O33336)
Sequence of UniProt O33336 (whole entry, looked up): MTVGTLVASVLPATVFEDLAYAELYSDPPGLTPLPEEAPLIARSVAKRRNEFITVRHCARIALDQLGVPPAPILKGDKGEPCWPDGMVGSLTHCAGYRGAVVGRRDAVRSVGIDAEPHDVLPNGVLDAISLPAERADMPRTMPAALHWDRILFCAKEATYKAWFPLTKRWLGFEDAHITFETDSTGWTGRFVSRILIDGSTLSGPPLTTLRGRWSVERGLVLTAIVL
CNR1 I267L/L193I/L359V: Cannabinoid receptor 1 (CNR1, Homo sapiens, UniProt P21554, I267L/L193I/L359V)
Sequence of UniProt P21554 (whole entry, unmodified, looked up): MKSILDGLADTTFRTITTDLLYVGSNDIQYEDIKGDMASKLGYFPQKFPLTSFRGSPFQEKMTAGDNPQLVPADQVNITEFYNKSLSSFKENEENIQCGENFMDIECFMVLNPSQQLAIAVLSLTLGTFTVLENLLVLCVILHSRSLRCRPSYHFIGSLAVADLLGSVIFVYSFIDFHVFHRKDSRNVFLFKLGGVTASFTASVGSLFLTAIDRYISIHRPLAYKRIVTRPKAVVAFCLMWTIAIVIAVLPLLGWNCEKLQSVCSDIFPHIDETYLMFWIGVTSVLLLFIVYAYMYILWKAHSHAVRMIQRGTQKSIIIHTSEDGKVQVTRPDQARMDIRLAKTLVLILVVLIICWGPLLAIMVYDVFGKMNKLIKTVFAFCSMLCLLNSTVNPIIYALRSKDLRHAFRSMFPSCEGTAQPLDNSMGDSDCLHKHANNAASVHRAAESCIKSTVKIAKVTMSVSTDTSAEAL
Sequence of UniProt Q62968 (whole entry, looked up): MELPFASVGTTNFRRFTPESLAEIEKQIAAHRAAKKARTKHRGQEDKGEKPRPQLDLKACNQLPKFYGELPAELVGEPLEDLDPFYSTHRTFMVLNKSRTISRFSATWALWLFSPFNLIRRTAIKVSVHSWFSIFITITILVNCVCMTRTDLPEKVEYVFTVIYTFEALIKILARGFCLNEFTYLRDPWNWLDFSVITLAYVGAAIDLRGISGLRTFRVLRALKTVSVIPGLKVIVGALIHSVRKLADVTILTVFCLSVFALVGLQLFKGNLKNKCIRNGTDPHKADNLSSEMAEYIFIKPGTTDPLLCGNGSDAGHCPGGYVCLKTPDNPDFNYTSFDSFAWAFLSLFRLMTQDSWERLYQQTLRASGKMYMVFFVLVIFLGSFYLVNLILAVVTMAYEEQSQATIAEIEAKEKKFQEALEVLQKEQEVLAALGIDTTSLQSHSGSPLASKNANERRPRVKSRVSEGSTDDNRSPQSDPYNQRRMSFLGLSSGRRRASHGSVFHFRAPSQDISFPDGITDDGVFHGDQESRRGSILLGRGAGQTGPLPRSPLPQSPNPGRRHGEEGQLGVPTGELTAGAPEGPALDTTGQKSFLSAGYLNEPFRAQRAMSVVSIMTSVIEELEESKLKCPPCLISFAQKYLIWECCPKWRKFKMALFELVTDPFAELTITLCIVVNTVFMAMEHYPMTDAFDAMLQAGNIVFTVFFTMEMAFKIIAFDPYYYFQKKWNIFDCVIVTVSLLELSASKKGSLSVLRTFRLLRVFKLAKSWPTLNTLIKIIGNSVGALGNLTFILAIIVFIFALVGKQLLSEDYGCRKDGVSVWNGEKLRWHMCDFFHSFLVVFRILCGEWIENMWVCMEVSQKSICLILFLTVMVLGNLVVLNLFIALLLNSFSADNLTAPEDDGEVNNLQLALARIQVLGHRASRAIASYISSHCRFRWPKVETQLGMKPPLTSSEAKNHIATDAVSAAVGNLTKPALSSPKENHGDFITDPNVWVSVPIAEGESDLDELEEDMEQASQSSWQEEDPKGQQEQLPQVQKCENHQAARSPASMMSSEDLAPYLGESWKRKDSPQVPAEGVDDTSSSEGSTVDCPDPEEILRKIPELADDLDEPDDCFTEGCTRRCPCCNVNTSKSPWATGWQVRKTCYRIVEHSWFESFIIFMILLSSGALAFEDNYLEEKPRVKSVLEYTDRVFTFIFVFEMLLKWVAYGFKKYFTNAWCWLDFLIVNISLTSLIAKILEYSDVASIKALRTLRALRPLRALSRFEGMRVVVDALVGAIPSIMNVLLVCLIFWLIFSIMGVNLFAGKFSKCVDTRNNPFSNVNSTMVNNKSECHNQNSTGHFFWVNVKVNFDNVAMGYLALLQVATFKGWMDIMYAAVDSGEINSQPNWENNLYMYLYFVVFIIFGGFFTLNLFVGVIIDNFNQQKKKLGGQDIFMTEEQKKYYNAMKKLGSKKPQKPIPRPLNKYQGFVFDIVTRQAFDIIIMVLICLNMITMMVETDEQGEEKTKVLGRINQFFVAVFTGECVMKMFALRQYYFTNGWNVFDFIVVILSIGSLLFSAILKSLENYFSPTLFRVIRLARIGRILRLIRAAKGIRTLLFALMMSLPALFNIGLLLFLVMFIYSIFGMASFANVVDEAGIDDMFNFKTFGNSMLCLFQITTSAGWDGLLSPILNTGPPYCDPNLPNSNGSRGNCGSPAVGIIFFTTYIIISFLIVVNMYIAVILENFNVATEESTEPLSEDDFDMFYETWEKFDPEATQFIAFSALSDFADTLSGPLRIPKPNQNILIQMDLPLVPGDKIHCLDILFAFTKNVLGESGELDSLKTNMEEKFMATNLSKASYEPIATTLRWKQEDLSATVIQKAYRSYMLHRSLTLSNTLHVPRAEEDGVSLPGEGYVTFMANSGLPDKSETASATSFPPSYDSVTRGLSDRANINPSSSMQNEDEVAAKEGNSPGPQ
Sequence of UniProt P9WGM7 (whole entry, looked up): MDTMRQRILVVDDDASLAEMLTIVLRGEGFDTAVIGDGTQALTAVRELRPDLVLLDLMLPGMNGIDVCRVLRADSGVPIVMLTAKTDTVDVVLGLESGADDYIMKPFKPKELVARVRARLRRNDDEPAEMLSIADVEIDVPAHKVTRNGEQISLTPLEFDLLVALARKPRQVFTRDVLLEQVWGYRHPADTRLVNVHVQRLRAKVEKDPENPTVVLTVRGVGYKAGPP
Sequence of UniProt P08913 (whole entry, looked up): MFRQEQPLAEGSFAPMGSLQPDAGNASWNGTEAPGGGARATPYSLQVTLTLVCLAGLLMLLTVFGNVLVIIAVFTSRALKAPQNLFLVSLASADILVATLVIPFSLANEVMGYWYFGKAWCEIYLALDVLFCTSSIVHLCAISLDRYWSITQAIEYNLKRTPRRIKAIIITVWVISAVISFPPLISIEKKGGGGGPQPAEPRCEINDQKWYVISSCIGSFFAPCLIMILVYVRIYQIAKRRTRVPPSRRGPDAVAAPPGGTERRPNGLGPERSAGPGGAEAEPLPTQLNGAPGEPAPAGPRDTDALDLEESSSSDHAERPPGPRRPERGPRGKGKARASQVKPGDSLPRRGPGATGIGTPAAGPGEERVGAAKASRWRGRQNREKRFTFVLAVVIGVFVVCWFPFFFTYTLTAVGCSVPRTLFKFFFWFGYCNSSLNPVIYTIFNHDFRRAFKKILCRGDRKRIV
Sequence of UniProt P34972 (whole entry, unmodified, looked up): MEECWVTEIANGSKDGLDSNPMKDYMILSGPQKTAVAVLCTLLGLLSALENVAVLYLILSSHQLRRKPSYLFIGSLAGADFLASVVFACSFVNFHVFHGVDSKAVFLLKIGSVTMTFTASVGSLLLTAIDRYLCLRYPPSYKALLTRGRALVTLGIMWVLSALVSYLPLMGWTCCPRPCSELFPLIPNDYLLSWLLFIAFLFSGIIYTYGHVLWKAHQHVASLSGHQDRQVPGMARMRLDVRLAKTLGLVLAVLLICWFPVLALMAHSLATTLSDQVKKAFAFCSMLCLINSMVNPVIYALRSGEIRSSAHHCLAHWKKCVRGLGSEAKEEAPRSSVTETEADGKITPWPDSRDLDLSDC

Cc1nc(=O)c2cc(CN(C)c3ccc(C(=O)NCCC[S+]([O-])c4ccccc4O)s3)ccc2[nH]1 (stereo not drawn)
Hill slope (4'-phosphopantetheinyl transferase PptT; enzyme activity, inhibitor, fluorescence polarization): 1.1

CN[C@](C)(C[18F])C(=O)O
tracer uptake (SK-OV-3 tumour model; host not given, liver; 15 min, tumour-bearing): 4.2 %ID/g

CCCCCn1cc(C(=O)c2ccc3ccccc3c2)c2ccccc21
change in Emax (CNR2 (Homo sapiens, UniProt P34972, V261L); Gαi1 engagement, agonist, BRET; reference: wild type): ~20%

Cc1nc(=O)c2cc(CN(C)c3ccc(C(=O)NCc4nsc(=O)[nH]4)s3)ccc2[nH]1
Hill slope (4'-phosphopantetheinyl transferase PptT; enzyme activity, inhibitor, fluorescence polarization): 1.4

CN(C)CC1CCCCC1(O)c1cccc(O)c1 (stereo not drawn)
efflux ratio (human P-glycoprotein; Caco-2 TC7 monolayer; 100 µM, 3 h, apical pH 6.8, basolateral pH 7.4, together with: cyclosporine A 10 µM; reference: B-to-A over A-to-B): 3

CCCCCn1cc(C(=O)c2cccc3ccccc23)c2ccccc21
Emax (CNR1 I267L/L193I/L359V; Gαi1 engagement, agonist, BRET; reference: reference agonist at wild-type CB1): 149 ± 1.5%

CCCC[C@H](NC(=O)CNC(=O)CNC(=O)c1ccc(NN)nc1)C(=O)N[C@H]1CC(=O)NCCCC[C@@H](C(N)=O)NC(=O)[C@H](Cc2c[nH]c3ccccc23)NC(=O)[C@H](CCCNC(=N)N)NC(=O)[C@@H](Cc2ccccc2)NC(=O)[C@H](Cc2c[nH]cn2)NC1=O [technetium-99m labelled]
uptake (C57 mouse, B16/F1 melanoma, tumor; 2 h, together with: L-lysine 12 mg): 14.1 ± 2.9 %ID/g

N=C(N)NCCC[C@@H]1NC(=O)[C@H](CCCCNC(=O)CCOCCOCCOCCOCCNC(=O)CC[C@H](NC(=O)CCOCCOCCOCCOCCNC(=O)CC[C@H](NC(=O)CN2CCN(CC(=O)O)CCN(CC(=O)O)CCN(CC(=O)O)CC2)C(=O)NCCOCCOCCOCCOCCC(=O)N[C@@H](CCC(=O)NCCOCCOCCOCCOCCC(=O)NCCCC[C@@H]2NC(=O)[C@@H](Cc3ccccc3)NC(=O)[C@H](CC(=O)O)NC(=O)CNC(=O)[C@H](CCCNC(=N)N)NC2=O)C(=O)NCCOCCOCCOCCOCCC(=O)NCCCC[C@@H]2NC(=O)[C@@H](Cc3ccccc3)NC(=O)[C@H](CC(=O)O)NC(=O)CNC(=O)[C@H](CCCNC(=N)N)NC2=O)C(=O)NCCOCCOCCOCCOCCC(=O)NCCCC[C@@H]2NC(=O)[C@@H](Cc3ccccc3)NC(=O)[C@H](CC(=O)O)NC(=O)CNC(=O)[C@H](CCCNC(=N)N)NC2=O)NC(=O)[C@@H](Cc2ccccc2)NC(=O)[C@H](CC(=O)O)NC(=O)CNC1=O [indium-111 labelled]
tissue uptake (female athymic nude mice, intestine; intravenous, 3 µCi, 24 h, U-87 MG glioma xenograft): 8.53 ± 1.88 %ID/g

O=S(=O)(O)CCOCC1CSSCC(COCCS(=O)(=O)O)SS1 (stereo not drawn)
koff (DNA-binding response regulator MtrA, C-terminal domain (mtrA, Mycobacterium tuberculosis, UniProt P9WGM7); binding, LSPR): 0.027 ± 0.00075 s⁻¹

CC(C)C[C@H](NC(=O)[C@H](Cc1ccccc1)NC(=O)CNC(=O)CNC(=O)[C@@H](N)Cc1ccc(O)cc1)C(=O)O
current amplitude (K+ current, agonist, photo-uncaging; rat locus coeruleus neurons; concentration not given, small somatic currents): 63.4 ± 5.9 pA

CC/C=C\C/C=C\C/C=C\C/C=C\C/C=C\C/C=C\CCC(=O)Nc1ccn(C2OC(CO)C(O)C2(F)F)c(=O)n1 (stereo not drawn)
CC50 (RXF 393; NCI60 screen): 45.1 µM

CCOC(=O)C1C(OC(c2ccc(Cl)cc2)c2ccc(Cl)cc2)CC2CCC1N2C (single isomer, unassigned)
Ki (ADRA2A (Homo sapiens, UniProt P08913); binding, radioligand displacement; inactive if below 75% at 10000 nM, together with: [3H]MK-912): inactive

N=C(N)NCCC[C@@H]1NC(=O)[C@H](CCCCNC(=O)CCOCCOCCOCCOCCNC(=O)CN2CCN(CC(=O)O)CCN(CC(=O)O)CCN(CC(=O)O)CC2)NC(=O)[C@@H](Cc2ccccc2)NC(=O)[C@H](CC(=O)O)NC(=O)CNC1=O [indium-111 labelled]
tumour to tissue ratio (athymic nude mice, female, U-87 MG glioma xenograft, tumour and blood; intravenous, 1 h; reference: tumour over blood): 4.04 ± 0.7

Cc1nc(=O)c2cc(CN(C)c3ccc(C(=O)NCCNS(C)(=O)=O)s3)ccc2[nH]1
Hill slope (4'-phosphopantetheinyl transferase PptT; enzyme activity, inhibitor, fluorescence polarization): 1

CCCCCn1cc(C(=O)c2cccc3c2CC(C)(C)C3)c2ccccc21
Emax (CNR1 (Homo sapiens, UniProt P21554); β-arrestin recruitment, agonist, BRET; HEK-293T): 163%

CCN(Cc1ccccc1)C(=O)CCc1nc(CN2CCN(C(=O)Cc3ccc(OC)c(OC)c3)CC2)no1
V1/2 of activation (Scn10a (Rattus norvegicus, UniProt Q62968); whole-cell patch clamp; rat DRG neurons; 300 nM): -20 ± 1.84 mV

Cc1nc(=O)c2cc(CN(C)c3ccc(C(=O)N4CCc5ccc(C(=O)O)cc5C4)s3)ccc2[nH]1
Hill slope (4'-phosphopantetheinyl transferase PptT; enzyme activity, inhibitor, fluorescence polarization): 1

CCCCCn1cc(C(=O)c2ccc3c(c2)CC(C)(C)C3)c2ccccc21
Emax (CNR1 I267L/L193I/L359V; Gαi1 engagement, agonist, BRET; reference: reference agonist at wild-type CB1): 88.9 ± 1.9%

Repeated from above:
CCCCCn1cc(C(=O)c2ccc3ccccc3c2)c2ccccc21
change in Emax (CNR2 (Homo sapiens, UniProt P34972, V261L); Gαi1 engagement, agonist, BRET; reference: wild type): ~20%

CCCCCn1cc(C(=O)c2cccc3c2CC(C)(C)C3)c2ccccc21
Emax (CNR1 (Homo sapiens, UniProt P21554); β-arrestin recruitment, agonist, BRET; HEK-293T): 163%

CN[C@](C)(C[18F])C(=O)O
tracer uptake (SK-OV-3 tumour model; host not given, liver; 15 min, tumour-bearing): 4.2 %ID/g
